# Measured values gathered from unrelated publications.
# Every numbered part comes from another study and shows a few of its results, in no order. “And” joins repeats or separate records; there may be more than shown.

# Set 1
# Target: Histone acetyltransferase KAT6A, winged helix 2, GST fusion (KAT6A, Homo sapiens, UniProt Q92794, residues 85-181)
# Method: protein binding microarray
# Form: double-stranded DNA, one strand shown
# Matrix: in vitro
# Tested at: not given
# Setting: 8-mer, flanks averaged, mean of 2 arrays, mostly near background
# Reference: not given
# Reading: higher = stronger binding
# Construct (chain): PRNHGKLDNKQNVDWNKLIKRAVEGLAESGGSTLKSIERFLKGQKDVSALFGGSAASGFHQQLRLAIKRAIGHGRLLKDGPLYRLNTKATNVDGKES
Oligonucleotide,E-score
GGGAGCAA,-0.041
GATGCCCC,-0.0194
ACGCCTGG,0.12
AAATCTAA,-0.051
CCATTGGA,0.0156
CTTAAAAC,0.169
AGCTCCAC,0.0031
AAATTCAC,-0.0365
CGAACAAG,-0.023
GGTATGCA,0.00668
GGCTGGAA,0.0842
CACTTCAC,0.0126
CAACGTTA,-0.171
CGATAAAC,-0.194
GCACAGCA,0.207
AACTCCAT,-0.185
AATCGCGG,0.0251
AGCTTTAA,-0.0204
CCTCCCGA,0.12
GAGATAAC,-0.085
CGCATTCA,0.14
CTCGGCGA,0.242
AAAGTACA,0.0704
GGCGTAGA,-0.122

# Set 2
# Target: Runt-related transcription factor 1 (RUNX1, Homo sapiens, UniProt Q01196, residues 1-453, full length assumed)
# UniProt Q01196, sequence (whole entry, looked up): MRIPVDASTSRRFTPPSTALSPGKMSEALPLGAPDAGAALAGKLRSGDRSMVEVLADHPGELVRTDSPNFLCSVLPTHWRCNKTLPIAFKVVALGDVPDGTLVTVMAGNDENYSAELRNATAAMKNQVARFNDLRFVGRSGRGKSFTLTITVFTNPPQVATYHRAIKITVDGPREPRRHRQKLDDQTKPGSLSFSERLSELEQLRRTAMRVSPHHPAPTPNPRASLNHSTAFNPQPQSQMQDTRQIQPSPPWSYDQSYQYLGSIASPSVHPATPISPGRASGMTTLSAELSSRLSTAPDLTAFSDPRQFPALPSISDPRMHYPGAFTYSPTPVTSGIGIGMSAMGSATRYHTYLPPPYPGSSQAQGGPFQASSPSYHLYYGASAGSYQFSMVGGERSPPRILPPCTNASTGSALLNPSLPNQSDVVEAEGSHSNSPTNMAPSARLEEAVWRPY
# Method: protein-binding microarray
# Form: double-stranded DNA, one strand shown
# Matrix: in vitro
# Tested at: not given
# Setting: k-mer, scored over probes, only values ≥0.25
# Reading: higher = stronger binding
Oligonucleotide,E-score
ACCGCAA,0.497
ACCACAT,0.439
TACCACA,0.429
CCTCAAC,0.258
CCACAAG,0.269
CGCGGTC,0.302
ACTGCGG,0.291
CAATACC,0.276
ACCACGA,0.354
AACCACA,0.487

# Set 3
# Target: RING finger protein unkempt homolog, zinc fingers 1-6, SBP tag (UNK, Homo sapiens, UniProt Q9C0B0, residues 30-357)
# UniProt Q9C0B0, sequence (30-357, looked up): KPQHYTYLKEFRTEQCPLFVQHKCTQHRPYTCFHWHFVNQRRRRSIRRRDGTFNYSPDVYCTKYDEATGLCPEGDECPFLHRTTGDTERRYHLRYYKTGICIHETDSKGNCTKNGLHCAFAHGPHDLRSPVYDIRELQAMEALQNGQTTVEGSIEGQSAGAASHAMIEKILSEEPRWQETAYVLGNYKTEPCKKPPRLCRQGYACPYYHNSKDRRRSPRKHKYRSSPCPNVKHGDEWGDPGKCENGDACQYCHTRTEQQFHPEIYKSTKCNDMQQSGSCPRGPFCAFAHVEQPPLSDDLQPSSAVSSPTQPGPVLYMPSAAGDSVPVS
# Method: RNA Bind-n-Seq
# Form: RNA
# Matrix: in vitro
# Tested at: 100 nM
# Setting: RNA with constant flanks, vertebrate orthologous sites, ends assumed
# Reference: input RNA pool
# Reading: higher = stronger binding
# All sequences stand within: GGGAGUUCUACAGUCCGACGAUC … CAACAGAGGAUUGAGCAUCA
Oligonucleotide,bound/input enrichment
UACAUCUGGUGAUAUUUGGCCUGGCCUUUCAGCUUAUGAUAAUAGUCCAAGGUCACCUCAUAGUCCUUCACCUAUUGCUACCCCACCCAGUCAGAGUUCAUCAUGCUCAGAUGCCCCCAU,0.831 ratio
GAGACGUCCCGAGGCUGUGUGUGCAAACACCUCACAGUGCUUGCUCCAUCCCACCAACUCUGAUUACUAGAAAUAUCCUUCUCUUACCUGUUAUUUAUCAAUUUUUCCCAGUAUUUUUAU,1.26 ratio
CAUUGUACCCUGCUGUAUAAUAAAUAAUCUUAGACAUUUAUCAACUGUUGAUACAAAUGUUAGUCCCUAACCACUUUUUAUAUGUUUUAAAUUUUUGAAAUUCAAGUGUACCUGCCGUAA,1.41 ratio
AAUCAGUAGAAUUACAAAAUACUAAAGUUGCAGUUGAAAGGAUAUCCAAGUAUGUGUUGGUAGUUACUAAAAGAAUUAUAGCUGUUAUUGCCUUGUAUUUAUAGCCCUCGUUUCAGGUUU,0.924 ratio
AUCCCUCAGUGACAGUAUGCCAUCUGUAGCAGAUUCCCACUCUAGUCAUUUUUCUGAAUUUAGUUGUUCUGACCUAGAAAGCAUGAAAACUUCUUGCAGUCAUGGUUCCAGUGAUUAUCA,2.56 ratio
CGCUGAUAAUUAGCUUUUUCUCAACGUGAAAUCAAUUAAGGAAAAUGUAAAUGGAGAGCUAAACGUAUUUACUGUGUCAUUCCAUGUGUGCUGGUGUGAAGUGAUUGCCAUCUUCUGUUG,0.588 ratio
GUGGCACCCCCUGUGAGAGGGAGUGGGGGGAGCCCAGGAUGACCCUCAGUUGUUCCAAUCCAGUAUUUUUUCCUUUUUAAAAAAAAAAAAAUUACUGUAUUUAUUAUGACGAUGGUGACU,0.537 ratio
GUUGUGACCCAUUUAACAUACACAAAAAACUAGCCAAAAAAAAUUUGCAUGUAAUUGACUUAGAUGAUGCCACUUUUCUGAGUGCAAAAUUUGGAAGACAGCUUGUACCUGGUUGGAAGC,1.48 ratio

# Set 4
# Target: RNA binding protein fox-1 homolog 2, RRM domain, GST-SBP tag (RBFOX2, Homo sapiens, UniProt O43251-10, residues 100-194)
# Method: RNA Bind-n-Seq
# Form: RNA
# Matrix: in vitro
# Tested at: 365 nM
# Setting: natural RNA segment, single round, ends assumed
# Reference: no-protein control
# Reading: higher = stronger binding
# All sequences stand within: GGGAGUUCUACAGUCCGACGAUC … UGGAAUUCUCGGGUGCCAA
# Target sequence (chain): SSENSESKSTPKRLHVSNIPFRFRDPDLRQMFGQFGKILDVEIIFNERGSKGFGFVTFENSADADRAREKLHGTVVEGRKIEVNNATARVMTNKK
Oligonucleotide,RBNS enrichment (R)
CAGUUUAAAACAUGCCAUCUCAUCGGUAGUCCCUGCUCUUUUCCCUCUCCCAUCUGCCAGUCUCUCUGUGCCCUCGUGUCUGAGUGCUGUUUGCCCACCUUUUCCAGGUG,0.373
GCUGCAUAUGUUGUAUUUUUUAAGUUGAAAUUAAUGAAGUUAACAUUUUUAUUGUAAUUUUAGCCUUAGCGUGUGGGGGUUUAUCCCUUUUUGUUAGCUGUGUACAGAAU,1.03
GGAGCCCUUACCCUCCCACCACUCCCCUCCCAAGACCCAGCCGCCGCCGUUGAGGGCUGAGUCCUUGCUGUGGGAUGUGCCAGUGUCCCCACCAACACCAGGAAUUUAGA,0.755
AAUGAACUUGAGACGCUUCAGCAAAGGCAGCAUUGGUCACGGAGUUCAAGGGAAUAGAUGAGUAAGCAACGUUUCAAAUUUGGGAUGAAAAGACUGCCAAACUAUUGGCU,0.957
UGACCUUCAGAUAUUUUCUACUUAAAAAAUUGUGGAUGAACGCCCUAUCUCCCUCCCACAGUGGAGUCCCCAUUACCUUGUCUAAAACAAUUUUUUAAUGUGUUCUGUGG,0.522
GUUUAUGGACUUAACUAUUUCUGUGAUGUUUCAUUUUUAGCCAUGUUAACUCCUAACACAUAUUCUCUUAUGUCUCAGUAAAGUUUCAUUUGAUAAGUUGUUGAGAUUCU,0.316
AGGCUCUGCGUGUGGUCCGUAUGGAAAGCCUGGUAGCCCUGCGAGUUAAGUACUGCUUCCAUUCAUUGUUUACGCUGGAAUUUUUCUCCCCAUGGAAUGUAAGUAAAACU,2
CUUGUACAUAAAGGCUUAAUUUGUUUUCCUUGUUAGGGUCAAGGGUGUCCUCCACUCUUUAACAGCUGCUGGACAGACACAUUAGAGCAGCUGUUUGUUAUUGAUAAUAA,0.586

# Further values, each from its own experiment
Molecule,target,test,system,setting,how to read,measurement,value
"PhoQ, residues 284 288 289 292 302 303 SIHLQL","PhoP, residues 12 14 15 18 19 LWHSL (Escherichia coli, UniProt P23836)","Sort-seq, measured: YFP reporter",E. coli,"PhoQ-PhoP variant library, added: 10 µM Mg2+","reference: high Mg2+ state, higher = stronger signaling",fold induction,13.5 and 6.82

# Excerpt of the above (set 1):
Oligonucleotide,E-score
ACGCCTGG,0.12
CCATTGGA,0.0156
CTTAAAAC,0.169
